{"data": "Assay results gathered from unrelated publications", "note": "Compare with care: the assays were run in different laboratories. Several values in a cell are separate wells, animals, samples, runs or records. ± marks the error that the study gave.", "sequence of UniProt Q14680 (whole entry, looked up)": "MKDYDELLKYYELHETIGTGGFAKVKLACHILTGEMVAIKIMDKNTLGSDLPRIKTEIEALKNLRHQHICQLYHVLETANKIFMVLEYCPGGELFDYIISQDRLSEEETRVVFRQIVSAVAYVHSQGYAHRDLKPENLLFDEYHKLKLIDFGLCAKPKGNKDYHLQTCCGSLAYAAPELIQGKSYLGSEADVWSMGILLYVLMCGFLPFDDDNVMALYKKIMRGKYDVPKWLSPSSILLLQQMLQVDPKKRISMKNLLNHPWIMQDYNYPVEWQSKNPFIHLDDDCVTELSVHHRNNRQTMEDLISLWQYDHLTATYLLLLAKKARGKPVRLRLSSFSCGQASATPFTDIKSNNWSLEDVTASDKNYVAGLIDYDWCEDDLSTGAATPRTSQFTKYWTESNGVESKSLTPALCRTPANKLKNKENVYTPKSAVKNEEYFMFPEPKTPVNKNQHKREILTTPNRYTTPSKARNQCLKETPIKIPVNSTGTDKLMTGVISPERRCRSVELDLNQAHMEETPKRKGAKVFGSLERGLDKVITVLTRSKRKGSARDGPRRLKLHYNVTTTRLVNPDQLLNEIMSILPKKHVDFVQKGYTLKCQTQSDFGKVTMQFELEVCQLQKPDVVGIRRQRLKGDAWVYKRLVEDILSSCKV", "sequence of UniProt Q9UMR5 (whole entry, looked up)": "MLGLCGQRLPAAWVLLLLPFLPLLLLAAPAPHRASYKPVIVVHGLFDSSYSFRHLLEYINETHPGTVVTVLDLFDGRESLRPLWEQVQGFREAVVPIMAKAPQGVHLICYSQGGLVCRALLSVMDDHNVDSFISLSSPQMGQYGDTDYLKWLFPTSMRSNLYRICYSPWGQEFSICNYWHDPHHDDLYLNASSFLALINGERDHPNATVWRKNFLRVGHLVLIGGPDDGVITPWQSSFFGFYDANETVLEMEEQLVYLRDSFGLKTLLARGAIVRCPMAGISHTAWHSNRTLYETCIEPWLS"}
{"SMILES": "C[C@H]1CN(c2n[nH]c3nc(N[C@H]4CC[C@H](NS(=O)(=O)CCC(F)(F)F)CC4)ncc23)CCO1", "tested on": "Maternal embryonic leucine zipper kinase (MELK, Homo sapiens, UniProt Q14680)", "assay": "inhibitor, Kinobeads competition profiling", "setting": "0.8 µM", "how to read": "reference: vehicle", "quantity": "relative abundance", "result": 1.01}
{"SMILES": "Oc1ccc(C(c2ccc(O)cc2)(C(F)(F)F)C(F)(F)F)cc1", "tested on": "HepG2 spheroids", "assay": "annexin V-FITC/PI flow cytometry", "setting": "0.01 µM, 96 h", "quantity": "necrotic cells", "result": "49.8 ± 8.39%"}
{"SMILES": "C[C@H](NC(=O)[C@H](CCCNC(=N)N)NC(=O)[C@H](Cc1c[nH]c2ccccc12)NC(=O)[C@H](CCCNC(=N)N)NC(=O)[C@H](Cc1c[nH]c2ccccc12)NC(=O)[C@H](Cc1c[nH]c2ccccc12)NC(=O)[C@H](Cc1c[nH]c2ccccc12)NC(=O)[C@H](CCCNC(=N)N)NC(=O)[C@H](Cc1c[nH]c2ccccc12)NC(=O)[C@H](CCCNC(=N)N)NC(=O)CN)C(N)=O", "tested on": "HD11 macrophages", "quantity": "LC50", "result": "> 512 µM"}
{"SMILES": "O=c1nc(NO)ccn1[C@@H]1O[C@H](CO)[C@@H](O)[C@H]1O", "tested on": "human PBM cells", "assay": "cytotoxicity", "quantity": "CC50", "result": "45.7 ± 3.1 µM"}
{"SMILES": "Fc1ccc(Oc2ccnc3cc(Cl)cc(Cl)c23)cc1", "tested on": "HEK293-H PPARγ-UAS-bla cells", "assay": "cell confluency", "setting": "24 h, nominal concentration", "how to read": "reference: baseline IC10 over IC10", "quantity": "toxic ratio", "result": 0.17}
{"SMILES": "CN(C)c1ccc(C(Nc2nc3c(-c4ccc([N+](=O)[O-])cc4)nn(-c4ccccc4)c3s2)P(=O)(Oc2ccccc2)Oc2ccccc2)cc1 (stereo not drawn)", "tested on": "Vero cells", "assay": "SRB", "setting": "1 µM, 10% fetal bovine serum", "quantity": "viability", "result": "97.3%"}
{"SMILES": "C[C@@H]1CN(c2ncc(C(O)CO)cc2Cl)CCN1c1nc2c(-c3cc(F)c(F)c(F)c3)cc(C(F)(F)F)cc2[nH]1 (stereo partly drawn)", "tested on": "293T-ACE2", "setting": "40 (unit not given)", "quantity": "CC50", "result": "> 2.5 µM"}
{"SMILES": "COc1cc2c(Oc3ccc4[nH]c(C)cc4c3F)ccnc2cc1OCC1(N)CC1", "test system": "paediatric recurrent refractory sarcoma", "setting": "8 mg", "quantity": "grade 1 or 2 Dizzy", "result": "0%"}
{"SMILES": "C[C@H](NC(=O)[C@H](Cc1ccc(O)cc1)NC(=O)[C@H](CCCNC(=N)N)NC(=O)[C@H](CCCNC(=N)N)NC(=O)[C@H](CCCNC(=N)N)NC(=O)[C@@H](N)CCCNC(=N)N)C(=O)N[C@@H](CCCNC(=N)N)C(=O)N1CCC[C@H]1C(=O)N[C@@H](Cc1ccc(O)cc1)C(=O)N[C@@H](Cc1ccc(O)cc1)C(=O)N[C@@H](CCCNC(=N)N)C(=O)N[C@@H](CCCNC(=N)N)C(=O)N[C@@H](CCCNC(=N)N)C(=O)O", "tested on": "DF-1", "assay": "LDH release", "setting": "5 µM, 1 h", "quantity": "viability", "result": "95.9 ± 1.32%"}
{"SMILES": "Cc1cc(C(=O)NC(C)(C)COc2cccc3c2C(N)=NS(=O)(=O)N3)cc(C)n1", "tested on": "Salmonella typhimurium", "assay": "Ames test", "test system": "TA100", "setting": "500 µg/plate, without S9", "how to read": "reference: treated over solvent", "quantity": "revertant ratio", "result": 1.2}
{"SMILES": "O=c1ccc2ccccc2o1", "tested on": "HepaRG 3D spheroids", "assay": "caspase-3/7 intensity", "setting": "72 h, high-content imaging", "quantity": "point of departure", "result": "539 µM"}
{"SMILES": "O=C(c1ccc(Cl)cc1)N1CCN2C(=O)N(OC(=O)N3CCOc4ccccc43)C(=O)C2C1 (stereo not drawn)", "tested on": "PPT2 (Homo sapiens, UniProt Q9UMR5)", "assay": "MS-based ABPP", "test system": "SW-620 conditioned medium", "setting": "10 µM, 1 h, 37 °C", "how to read": "reference: compound over DMSO, lower = more inhibition", "quantity": "median protein ratio", "result": 0.4}
{"SMILES": "C[C@@H](c1ccc2nccn2c1)n1nnc2ncc(-c3cnn(C)c3)nc21", "tested on": "primary human hepatocytes", "assay": "item: CYP2B6", "test system": "human", "setting": "concentration not given, 48 h", "how to read": "reference: phenobarbital", "quantity": "mRNA induction", "result": "19%"}
{"SMILES": "CC(C)(c1ccc(O)cc1)c1ccc(O)cc1", "tested on": "HepG2 spheroids, dissociated", "assay": "annexin V-FITC/PI flow cytometry", "setting": "0.1 µM, 24 h", "quantity": "late apoptotic cells", "result": "8.77 ± 1.83%"}
{"SMILES": "CO[C@H]1C[C@@H]2CC[C@@H](C)[C@@](O)(O2)C(=O)C(=O)N2CCCC[C@H]2C(=O)O[C@H]([C@H](C)C[C@@H]2CC[C@@H](OC(=O)NCCOCCOCCOCCOCCOCCOCCOCCOCCC(=O)N3CCc4cc(Cn5nc(-c6ccc7oc(N)nc7c6)c6c(N)ncnc65)ccc4C3)[C@H](OC)C2)C[C@@H](O)[C@H](C)/C=C(\\C)[C@@H](O)[C@@H](OC)C(=O)[C@H](C)C[C@H](C)/C=C/C=C/C=C/1C", "assay": "phase 1 dose escalation, item: vomiting", "test system": "advanced solid tumour patients", "setting": "intravenous, 6 mg weekly, grade ≥3", "quantity": "TRAE incidence", "result": "0%"}
{"SMILES": "Nc1ccn(C[C@@H](CO)OCP(=O)(O)O)c(=O)n1.O.O", "tested on": "HEL human embryonic lung fibroblasts", "assay": "cell morphology alteration", "quantity": "minimum cytotoxic concentration", "result": "> 250 µM"}
{"SMILES": "COc1ccc2c(c1)c(CC(=O)O)c(C)n2C(=O)c1ccc(Cl)cc1", "tested on": "HEK293-H PPARγ-UAS-bla cells", "assay": "cell confluency, IncuCyte imaging", "setting": "24 h, nominal concentration", "quantity": "IC10", "result": "40.4 µM"}
{"SMILES": "CC[C@H](C)[C@H](NC(=O)[C@H](Cc1ccccc1)NC(=O)[C@H](CCC(=O)O)NC(=O)[C@H](CCCNC(=N)N)NC(=O)[C@H](C)NC(=O)[C@H](C)NC(=O)[C@H](CCC(N)=O)NC(=O)[C@H](CCC(=O)O)NC(=O)[C@H](CCC(=O)O)NC(=O)[C@H](CC(C)C)NC(=O)[C@H](Cc1ccc(O)cc1)NC(=O)[C@H](CO)NC(=O)[C@H](CO)NC(=O)[C@@H](NC(=O)[C@H](CC(=O)O)NC(=O)[C@H](CO)NC(=O)[C@@H](NC(=O)[C@H](Cc1ccccc1)NC(=O)[C@@H](NC(=O)CNC(=O)[C@H](CCC(=O)O)NC(=O)[C@H](C)NC(=O)CCc1c[nH]cn1)[C@@H](C)O)[C@@H](C)O)C(C)C)C(=O)N[C@@H](C)C(=O)N[C@@H](Cc1c[nH]c2ccccc12)C(=O)N[C@@H](CC(C)C)C(=O)N[C@H](C(=O)N[C@@H](CCCNC(=N)N)C(=O)NCC(=O)N[C@@H](CCCNC(=N)N)C(=O)N[C@@H](CCCCNC(=O)COCCOCCNC(=O)COCCOCCNC(=O)CC[C@H](NC(=O)CCCCCCCCCCCCCCCCC(=O)O)C(=O)O)C(=O)NCC(=O)NCC(=O)N[C@@H](CO)C(=O)N[C@@H](CCCCNc1c(NCCCCCN(O)C(=O)CCC(=O)NCCCCCN(O)C(=O)CCC(=O)NCCCCCN(O)C(C)=O)c(=O)c1=O)C(=O)O)C(C)C [zirconium-89 labelled]", "test system": "rat, heart", "setting": "iv, 3 nmol/kg, 168 h, ex vivo", "quantity": "tissue uptake", "result": "0.09 %ID/g"}
{"SMILES": "CC[C@H](C)[C@@H]1NC(=O)[C@@H]2CCCN2C(=O)[C@H](CC(C)C)NC(=O)[C@H](CC(C)C)NC(=O)CNC(=O)[C@@H](NC(=O)[C@@H](NC(=O)[C@H](CC(=O)O)NC(=O)CNC(=O)[C@@H](NC(=O)[C@H](C)NC(=O)CNC(=O)[C@H](CCCCN)NC(=O)[C@H](CC(C)C)NC(=O)[C@H](CC(C)C)NC(=O)[C@H](CCCCN)NC(=O)CNC(=O)[C@@H](NC(=O)[C@@H](N)CC(C)C)C(C)C)C(C)C)C(C)C)CSSC[C@@H](C(=O)O)NC1=O", "assay": "RNA-seq, item: Sgms2", "test system": "mouse, traumatic brain injury model, frontal cortex and hippocampus", "setting": "dose not given", "how to read": "reference: TBI alone", "quantity": "log2 fold change", "result": -2.29}
{"SMILES": "CC[C@H](NC(=O)[C@H](CS(=O)(=O)CC1CC1)N[C@@H](c1ccc(F)cc1)C(F)(F)F)C(=O)C(=O)NC1CC1", "tested on": "293T-ACE2", "setting": "40 (unit not given)", "quantity": "CC50", "result": "> 2.5 µM"}
{"SMILES": "O=C(O)C(F)(F)C(F)(F)C(F)(F)C(F)(F)C(F)(F)C(F)(F)C(F)(F)C(F)(F)C(F)(F)C(F)(F)F", "tested on": "hTERT-RPTEC parental", "setting": "concentration not given, 96-well plate", "quantity": "LDH release", "result": "27.9 mU/mL and 23.6 mU/mL and 25.9 mU/mL and 19.7 mU/mL"}
{"note": "A few entries again:"}
{"SMILES": "C[C@@H]1CN(c2ncc(C(O)CO)cc2Cl)CCN1c1nc2c(-c3cc(F)c(F)c(F)c3)cc(C(F)(F)F)cc2[nH]1 (stereo partly drawn)", "tested on": "293T-ACE2", "setting": "40 (unit not given)", "quantity": "CC50", "result": "> 2.5 µM"}
